Measured values pooled from the literature.
Protocols differ between the studies behind these lines. “And” joins repeats or separate records; there may be more than shown. ± gives the spread as reported.

With CC1CCC2C(C)C(OC(=O)CCC(=O)OCCOCCOCCOC(=O)N3CCC(Nc4ccc(S(=O)(=O)NC(=O)c5ccc(N6CCN(CC7=C(c8ccc(Cl)cc8)CC(C)(C)CC7)CC6)cc5Oc5cnc6[nH]ccc6c5)cc4[N+](=O)[O-])CC3)OC3OC4(C)CCC1C32OO4 (stereo not drawn) the solubility was 3.33 µg/mL.
Cc1[nH]nc2c1N=C(c1ccccc1Cl)c1cnc(N3CCOCC3)cc1N2 has a solubility of 0.44 µg/mL (aqueous buffer; pH 6.8).
With O=c1[nH]cccc1[C@H](CO)Nc1nc(N2C[C@@H]3C[C@H]2CO3)c2cc(-c3ccccc3)sc2n1 the solubility was 7.2 µM.
With COc1ccc(C=C2C(=O)Nc3ccc(I)cc32)cc1 the solubility was 19.3 ± 4.2 µM (AlphaScreen buffer; aqueous buffer, 7.5% DMSO; pH 7.3).
The solubility of CNC(=O)C[C@H](Cc1ccc(C#N)cc1)NC(=O)c1cc(-c2ccc(CN[C@H](C)c3ccc(C)cc3)o2)ccc1Cl is reported as 6 µg/mL (pH 6.5).
For O=C1Nc2ccc(I)cc2C1=Cc1ccc(O)cc1, the solubility was 16.5 ± 1.2 µM (AlphaScreen buffer; aqueous buffer, 7.5% DMSO; pH 7.3).
O=C(Nc1ccc2ccccc2c1)C1CC2(C1)CC(F)(F)C2 gave a solubility of 9 µM (kinetic solubility; PBS with 2% DMSO; 2 h, pH 7.4, 25 °C, mean of incubations).
The solubility of CN(C)C(=O)c1ccc(COC(=O)N[c-]2cccc2)cc1.[Fe+2].c1cc[cH-]c1 is reported as > 200 µM (absorbance; PBS; pH 7.4, 1% DMSO).
CC(=O)O[C@H]1C(=O)[C@@]2(C)[C@H]([C@H](OC(=O)c3ccccc3)[C@]3(O)C[C@H](OC(=O)[C@H](OCOP(=O)(O)O)[C@@H](NC(=O)c4ccccc4)c4ccccc4)C(C)=C1C3(C)C)[C@]1(OC(C)=O)CO[C@@H]1C[C@@H]2O has a solubility of 100 µg/mL (HPLC, saturated solution; HBSS; 30 s, pH 6.5).
COC(=O)c1ccc2c(c1)NC(=O)C2=Cc1cc(Br)c(O)c(Br)c1 has a solubility of 135 ± 28 µM (AlphaScreen buffer; aqueous buffer, 7.5% DMSO; pH 7.3).
The solubility of CN(C)S(=O)(=O)c1ccc(S(=O)(=O)N2CCC(n3c(=O)[nH]c4ccccc43)CC2)cc1 is reported as ≥ 10000 µg/mL (HPLC; NMP; 24 h, 20 °C).
The solubility of O=C(N[c-]1cccc1)OCc1ccc(F)cc1.[Fe+2].c1cc[cH-]c1 is reported as 121 ± 5 µM (absorbance; RPMI medium with 5% FBS; 1% DMSO).
CSCc1cn(-c2cccc(C(=O)N3CCC(c4nc(-c5ccccc5)n[nH]4)CC3)c2)nn1 has a solubility of 64.2 ± 2.9 µM (LC-MS; DPBS; 18 h).
With CC(C)N(Cc1ccccc1)C(=O)C1(C(F)(F)F)CCC1 the solubility was 230 µM (PBS; 2 h, pH 7.4, 25 °C, 2% DMSO).
For CC1(C)OCCc2cc(C(=O)N3CCC(c4nc(-c5ccccc5)n[nH]4)CC3)ccc21, the solubility was 76.5 ± 2.1 µM (UV; DPBS; 18 h, room temperature).
The solubility of C#CCN(C(=O)OCc1ccc(C(=O)N(C)C)cc1)[c-]1cccc1.[Fe+2].c1cc[cH-]c1 is reported as > 200 µM (absorbance; RPMI medium with 5% FBS; 1% DMSO).
The solubility of O=c1c2ccccc2[se]n1CCCCCCn1[se]c2ccccc2c1=O is reported as 420 ± 5 µg/mL (shake-flask, RP-HPLC; acetonitrile; 24 h, 25 °C).
For OC[C@H]1O[C@@H](n2cnc3c(SCc4ccccc4)nc(Cl)nc32)C[C@@H]1O, the solubility was 14.4 µM (UV absorbance; culture medium; stock diluted to 0.025 mM).
The solubility of Cc1cc(C(=O)N[C@@H](CC(=O)NC(C)(C)C)C(=O)NCCNC(=O)c2cc(-c3ccccc3)ccn2)no1 is reported as > 96 µg/mL (simulated gastric fluid; pH 1.2).
O=C(Nc1ccc2ccccc2c1)C1CC2(CC2)C1 gave a solubility of 3 µM and 2 µM (kinetic solubility; PBS with 2% DMSO; 2 h, pH 7.4, 25 °C, single incubation).
With CN(Cc1ccc(C2(C(F)(F)F)CCC2)cc1)Cc1cccc2ccccc12 the solubility was 8 µM (PBS; pH 7.4, 25 °C, 2% DMSO).
With O=C1Nc2ccc(I)cc2C1=Cc1cncs1 the solubility was 6.1 ± 3.5 µM (AlphaScreen buffer; aqueous buffer, 7.5% DMSO; pH 7.3).
The solubility of CC(C)N(Cc1ccccc1)C(=O)C1(C(F)(F)F)CC1 is reported as 284 µM (PBS; 2 h, pH 7.4, 25 °C).
O=C1Nc2ccc(I)cc2C1=Cc1cc(Br)c(O)c(Br)c1 gave a solubility of 140 ± 6.3 µM (AlphaScreen buffer; aqueous buffer, 7.5% DMSO; pH 7.3).
With O=C(Nc1cccc(C(=O)N2CCC(c3nc(-c4ccccc4)n[nH]3)CC2)c1)c1ccccc1 the solubility was 31.1 ± 0.9 µM (UV; DPBS; 18 h, room temperature).
CC(C)(C)C(=O)Nc1ccccc1 has a solubility of ≥ 400 µM (PBS; 2 h, pH 7.4, 25 °C).
With Cc1cc(NC(=O)c2ccc(Br)cc2)n[nH]1 the solubility was 15.9 µg/mL (aqueous buffer; pH 7.4).
Cc1ncc2[nH]c(=O)n(-c3cnc(Oc4cccc5c4C(C)(C)CO5)c(Cl)c3C)c2n1 has a solubility of 167 µM (simulated gastric fluid; pH 2).
With Cc1cc(C(=O)N[C@@H](CC(=O)NC(C)(C)C)C(=O)NCCNC(=O)c2cccc(-c3cc[nH]n3)c2)no1 the solubility was > 96 µg/mL (aqueous buffer; pH 7.4).
The solubility of CC(C)(C)NC(=O)c1ccccc1 is reported as 313 µM (PBS; 2 h, pH 7.4, 25 °C, 2% DMSO).
COc1ccc(N2CCOCC2)c2sc(NC(=O)c3ccnc(CN4CCCC4)c3)nc12 gave a solubility of 137 µg/mL (in situ salt screening; 0.1 M hydrochloric acid; 7 days, pH 1.33).
For O=C(Nc1ccc2ccccc2c1)C1CC2(CO1)CC(F)(F)C2 (stereo not drawn), the solubility was 34 µM (kinetic solubility; PBS with 2% DMSO; 2 h, pH 7.4, 25 °C, mean of incubations).
With CC1(C)C(=CC=C2CCCC(C=CC3=[N+](CCC[N+](C)(C)C)c4ccc(S(=O)(=O)O)cc4C3(C)C)=C2SCCOCCOCCC(=O)O)N(CCC[N+](C)(C)C)c2ccc(S(=O)(=O)O)cc21 the solubility was 140000 µg/mL (DMSO).
CC1(C)OB(c2ccc(COC(=O)N(Cc3cn(-c4cc5ccc(O)cc5oc4=O)nn3)[c-]3cccc3)cc2)OC1(C)C.[Fe+2].c1cc[cH-]c1 gave a solubility of > 180 µM (absorbance; RPMI medium with 5% FBS; 1% DMSO).
With FC(F)(F)C1(c2ccc(CN3CCN(C(c4ccccc4)c4ccc(Cl)cc4)CC3)cc2)CC1 (stereo not drawn) the solubility was 2 µM (PBS; 2 h, pH 7.4, 25 °C, 2% DMSO).
Cn1cnnc1C1CCN(c2ncccc2-c2cccnc2)CC1 gave a solubility of 234 µM (ammonium acetate buffer, DMSO; 24 h, pH 7.4, 50 mM buffer, 2.5% DMSO).
O=C1Nc2ccc(I)cc2C1=Cc1cc(Br)cc(Br)c1 gave a solubility of 10.7 ± 2 µM (AlphaScreen buffer; aqueous buffer, 7.5% DMSO; pH 7.3).
For O=C(Nc1ccc2ccccc2c1)C1CC2(CCC2)CO1 (stereo not drawn), the solubility was 118 µM (kinetic solubility; PBS with 2% DMSO; 2 h, pH 7.4, 25 °C, single incubation).
O=C(NC1(C(F)(F)F)CCC1)c1ccccc1 gave a solubility of 333 µM (PBS; 2 h, pH 7.4, 25 °C, 2% DMSO).
O=S1(=O)CC2CCCCC2CS1 (stereo not drawn) gave a solubility of 41600 µM (phase solubility, NMR; water; 25 °C, together with: hydroxypropyl-β-cyclodextrin 364 mM).
With C#CCN(C(=O)OCc1ccc(F)cc1)[c-]1cccc1.[Fe+2].c1cc[cH-]c1 the solubility was 125 ± 14 µM (absorbance; RPMI medium with 5% FBS; 1% DMSO).
For FC(F)(F)C1(c2ccc(CN3CCN(C(c4ccccc4)c4ccc(Cl)cc4)CC3)cc2)CCC1 (stereo not drawn), the solubility was 5 µM (PBS; 2 h, pH 7.4, 25 °C, 2% DMSO).
